Experimental data collected from several papers.
Protocols differ between the studies behind these lines.
Target: Dipeptidyl peptidase 4 (DPP4, Homo sapiens, UniProt P27487)
Sequence of UniProt P27487 (whole entry, looked up): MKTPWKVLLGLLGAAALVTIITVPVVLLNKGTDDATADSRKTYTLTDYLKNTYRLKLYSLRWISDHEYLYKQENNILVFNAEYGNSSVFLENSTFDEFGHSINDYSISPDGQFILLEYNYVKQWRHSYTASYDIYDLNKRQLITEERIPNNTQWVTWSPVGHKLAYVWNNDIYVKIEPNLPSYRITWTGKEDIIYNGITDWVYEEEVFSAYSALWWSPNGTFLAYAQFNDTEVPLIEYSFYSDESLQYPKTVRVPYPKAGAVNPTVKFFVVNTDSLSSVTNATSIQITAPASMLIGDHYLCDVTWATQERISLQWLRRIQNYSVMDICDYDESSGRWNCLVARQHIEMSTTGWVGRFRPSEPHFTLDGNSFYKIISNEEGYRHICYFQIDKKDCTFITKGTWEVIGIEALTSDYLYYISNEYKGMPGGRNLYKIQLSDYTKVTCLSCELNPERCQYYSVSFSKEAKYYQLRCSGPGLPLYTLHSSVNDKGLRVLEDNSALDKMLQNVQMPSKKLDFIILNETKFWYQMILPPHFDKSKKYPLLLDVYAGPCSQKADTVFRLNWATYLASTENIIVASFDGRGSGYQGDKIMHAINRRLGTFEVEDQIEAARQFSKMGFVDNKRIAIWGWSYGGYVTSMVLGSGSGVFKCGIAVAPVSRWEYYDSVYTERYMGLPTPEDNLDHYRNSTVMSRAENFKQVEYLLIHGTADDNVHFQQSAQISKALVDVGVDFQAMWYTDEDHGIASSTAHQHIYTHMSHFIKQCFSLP
Action: inhibitor

SMILES | assay | quantity | result
CCC1(CC)C(=O)N(c2cccc(CN3CCN(Cc4ccc(Br)cc4)CC3)c2)C1=O | cell-free assay | IC50 | 1.4 µM
CC(=O)N[C@@H](CCCNC(=N)N)C(=O)NCCOCCOCC(=O)N[C@H](C)C(=O)N1CCC[C@H]1B(O)O | enzyme activity, fluorescence | Ki | 6.1 µM
NC(CC(=O)NN=Cc1ccc(F)c(F)c1)Cc1cc(F)c(F)cc1F (stereo not shown) | enzyme activity | IC50 | 10.6 µM
O=c1c2c(O)cc(O)cc2oc2oc3cc(O)ccc3c12 | enzyme activity | Ki | 35.1 µM
COc1cc(/C=C/C(=O)OC[C@H]2O[C@H](O[C@]3(CO)O[C@H](CO)[C@@H](OC(C)=O)[C@@H]3OC(=O)/C=C/c3ccc(O)c(OC)c3)[C@H](O)[C@@H](O)[C@@H]2O)ccc1O | enzyme activity | IC50 | 63.3 µM
NC(CC(=O)NN=Cc1c[nH]cn1)Cc1cc(F)c(F)cc1F (stereo not shown) | enzyme activity | IC50 | 24 µM
NCC(=O)NCC(=O)N[C@@H](Cc1ccccc1)C(=O)O | enzyme activity, absorbance | IC50 | 570 µM
Cn1c(=O)c(=O)n(C)c2cc(S(=O)(=O)Nc3ccc(S(=O)(=O)Nc4ccccn4)cc3)ccc21 | enzyme activity, fluorescence | IC50 | 0.00048 µM
CC(C)=CCN=C(N)NCCC[C@@H](NC(=O)CCCc1ccc(O)cc1)C(=O)N[C@@H](Cc1ccccc1)C(O)CC(=O)N[C@@H](Cc1ccc(O)cc1)C(=O)O (stereo in doubt) | enzyme activity | IC50 | 26 µM
Cn1c(=O)c(=O)n(C)c2cc(S(=O)(=O)Nc3ccc(S(=O)(=O)Nc4nccs4)cc3)ccc21 | enzyme activity | IC50 | 0.000955 µM
O=C(OC[C@@]1(O)C(=O)C=C[C@@H](OC(=O)c2ccccc2)[C@@H]1O)c1ccccc1 | enzyme activity | IC50 | 15.7 µM
NC(CC(=O)NN=Cc1ccc(Cl)c(Cl)c1)Cc1cc(F)c(F)cc1F (stereo not shown) | enzyme activity | IC50 | 30.8 µM
CC(C)NC(=O)NNS(=O)(=O)c1ccc2c(c1)n(C)c(=O)c(=O)n2C | enzyme activity, fluorescence | IC50 | 3.9e-05 µM
